Experimental data collected from several papers.
Each numbered part is a random draw from the data of one study; scales do not carry over between parts. Positions count from the first letter of the parent shown.

Series 1 — method: protein-binding microarray; form: double-stranded DNA, one strand shown; matrix: in vitro; tested at: 250 nM; setting: 60-bp whole probe; together with: salmon DNA 0.4 mg/ml; relative to: random background probes; direction: higher = stronger binding; all sequences stand within: GCCTAGCAC … GTCTTGATTCGCTTGACGCTGCTG
Target: Interferon regulatory factor 5, full length, phosphomimetic (IRF5, Homo sapiens, UniProt Q13568-2, residues 1-514, K96S/S451D/S453D/S456D/S462D)
Oligonucleotide | log fluorescence [z-score]
CTAGGTATCGGGACTGGGTTAGTGCTA | 0.935
AGTCTCTGCAGGGAGAGAGCGTGCTAG | -0.437
GACGATCTCAGTTTCGAGATGTGCTAG | 5.43
TTAGGTATAGGTATCGGTTAGTGCTAG | 4.56
TTAGGACTGGGGAGTGGGTTAGTGCTA | -0.393
TCAAATATATATATTGTACTGTGCTAG | 0.709
TCTCTTTCCTTACTTCCCAATGTGCTA | 1.94
GGCTTCCTCTTTCTCTGCTAGTGCTAG | 0.57
TCAACTTTAGGTTCCCAACTGTGCTAG | 0.139
CATTTTCTTTAACTCATTCTGTGCTAG | 1.99
TTAGGCCTGGGTTTCGGTTAGTGCTAG | 7.94

Series 2 — method: DHFR PCA, deep sequencing; matrix: yeast; together with: (+)-ABA 17 µM; relative to: wild-type fitted maximum; direction: higher = stronger binding
Target: ABI1, truncated, D143A, DHFR fusion (Arabidopsis thaliana)
Setting: methotrexate growth selection, single substitutions
Starting sequence: PYL1, truncated, DHFR fusion (Arabidopsis thaliana); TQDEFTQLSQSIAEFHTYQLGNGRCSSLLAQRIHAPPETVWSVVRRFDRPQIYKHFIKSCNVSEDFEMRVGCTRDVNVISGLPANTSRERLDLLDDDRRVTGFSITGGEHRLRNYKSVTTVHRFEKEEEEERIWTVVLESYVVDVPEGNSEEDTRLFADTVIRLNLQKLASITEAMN
Substitution | relative binding score [%]
D159K | 12.2
I52D | 83.2
R45L | -5.79
R111K | 71
M68E | 37.7
L20M | 79.6
E64K | 87.4
L91K | -4.37
R32I | 80.8
V78H | 11.7
N114F | 1.45
E64N | 86.4
K168P | 3.57
P37I | 65.4
S80Q | 9.48
G107S | 54.8

Series 3 — target: CCNF, cyclin fold, Cln2 fusion (human); method: yeast growth competition, sequencing; matrix: yeast; setting: strong parent motif; relative to: not given; direction: higher = stronger binding
Starting sequence: RBL1 docking peptide (human); GSAKRRLFGEDPP
Substitution | normalised enrichment score
GSAKCRLFGEDPP [R5C] | 0.736
GSAKRLLFGEDPP [R6L] | 2.86
VSAKRRLFGEDPP [G1V] | 8.87
GSAKRRLFREDPP [G9R] | 7.88
GSAKRRLFGEDPR [P13R] | 6.94
GSAKRRLFMEDPP [G9M] | 8.98
GSAKRRLVGEDPP [F8V] | 0.906
GSAKRRLFQEDPP [G9Q] | 7.44
GSARRRLFGEDPP [K4R] | 8.81
GSAKARLFGEDPP [R5A] | 0.567
GSAKRRSFGEDPP [L7S] | 0.0939
GSAQRRLFGEDPP [K4Q] | 6.13
GSAKRRLFGEGPP [D11G] | 7.49

Mixed results
Substance | target | assay | system | setting | how to read | quantity | value
PhoQ, residues 284 288 289 292 302 303 TSTLRA | PhoP, residues 12 14 15 18 19 NQCAL (Escherichia coli, UniProt P23836) | Sort-seq, refers to: YFP reporter | E. coli | PhoQ-PhoP variant library, together with: 10 µM Mg2+ | relative to: high Mg2+ state, higher = stronger signaling | fold induction | 10.7
